Results gathered from unrelated publications.
Every numbered part comes from another study and shows a few of its results, in no order.
Chain of UniProt P10721 (whole entry, unmodified, looked up): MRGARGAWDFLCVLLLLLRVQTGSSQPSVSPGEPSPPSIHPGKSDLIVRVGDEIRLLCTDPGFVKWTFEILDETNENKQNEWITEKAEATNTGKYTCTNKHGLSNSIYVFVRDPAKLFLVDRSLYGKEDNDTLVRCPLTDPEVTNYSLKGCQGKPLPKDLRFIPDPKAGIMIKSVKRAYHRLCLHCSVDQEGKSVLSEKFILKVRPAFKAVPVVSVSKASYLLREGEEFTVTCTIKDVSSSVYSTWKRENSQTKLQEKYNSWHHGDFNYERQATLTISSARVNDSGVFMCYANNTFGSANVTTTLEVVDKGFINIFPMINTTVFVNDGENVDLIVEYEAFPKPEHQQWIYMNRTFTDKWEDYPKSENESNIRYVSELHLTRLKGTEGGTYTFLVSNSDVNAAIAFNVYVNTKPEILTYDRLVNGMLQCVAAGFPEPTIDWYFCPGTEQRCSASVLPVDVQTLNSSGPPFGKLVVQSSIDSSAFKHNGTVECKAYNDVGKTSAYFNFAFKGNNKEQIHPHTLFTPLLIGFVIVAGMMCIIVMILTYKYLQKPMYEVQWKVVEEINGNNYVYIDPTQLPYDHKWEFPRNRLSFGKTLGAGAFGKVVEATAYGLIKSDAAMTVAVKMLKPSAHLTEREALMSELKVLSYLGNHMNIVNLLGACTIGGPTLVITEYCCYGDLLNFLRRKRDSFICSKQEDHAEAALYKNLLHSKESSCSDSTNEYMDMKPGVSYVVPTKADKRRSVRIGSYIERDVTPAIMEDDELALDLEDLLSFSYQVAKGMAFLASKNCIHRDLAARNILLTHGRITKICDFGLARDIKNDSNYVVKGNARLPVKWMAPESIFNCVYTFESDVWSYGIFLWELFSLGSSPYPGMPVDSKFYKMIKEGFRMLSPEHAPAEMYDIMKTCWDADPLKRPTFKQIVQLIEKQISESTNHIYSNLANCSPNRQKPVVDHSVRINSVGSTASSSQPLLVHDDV
Chain of UniProt Q96BR1 (whole entry, looked up): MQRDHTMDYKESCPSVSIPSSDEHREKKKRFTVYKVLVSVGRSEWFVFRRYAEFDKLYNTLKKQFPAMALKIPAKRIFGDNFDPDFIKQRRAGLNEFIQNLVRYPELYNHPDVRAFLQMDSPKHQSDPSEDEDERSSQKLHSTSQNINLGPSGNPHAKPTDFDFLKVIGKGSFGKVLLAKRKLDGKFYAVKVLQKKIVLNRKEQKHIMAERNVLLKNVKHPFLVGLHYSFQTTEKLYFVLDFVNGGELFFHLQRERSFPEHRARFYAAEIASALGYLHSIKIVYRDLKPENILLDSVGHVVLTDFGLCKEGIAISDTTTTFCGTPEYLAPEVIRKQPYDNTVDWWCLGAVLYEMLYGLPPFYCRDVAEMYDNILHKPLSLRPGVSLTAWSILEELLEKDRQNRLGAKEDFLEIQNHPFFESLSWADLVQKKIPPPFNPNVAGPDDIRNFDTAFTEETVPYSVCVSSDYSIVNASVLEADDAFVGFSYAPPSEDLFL
Chain of UniProt P15056 (whole entry, looked up): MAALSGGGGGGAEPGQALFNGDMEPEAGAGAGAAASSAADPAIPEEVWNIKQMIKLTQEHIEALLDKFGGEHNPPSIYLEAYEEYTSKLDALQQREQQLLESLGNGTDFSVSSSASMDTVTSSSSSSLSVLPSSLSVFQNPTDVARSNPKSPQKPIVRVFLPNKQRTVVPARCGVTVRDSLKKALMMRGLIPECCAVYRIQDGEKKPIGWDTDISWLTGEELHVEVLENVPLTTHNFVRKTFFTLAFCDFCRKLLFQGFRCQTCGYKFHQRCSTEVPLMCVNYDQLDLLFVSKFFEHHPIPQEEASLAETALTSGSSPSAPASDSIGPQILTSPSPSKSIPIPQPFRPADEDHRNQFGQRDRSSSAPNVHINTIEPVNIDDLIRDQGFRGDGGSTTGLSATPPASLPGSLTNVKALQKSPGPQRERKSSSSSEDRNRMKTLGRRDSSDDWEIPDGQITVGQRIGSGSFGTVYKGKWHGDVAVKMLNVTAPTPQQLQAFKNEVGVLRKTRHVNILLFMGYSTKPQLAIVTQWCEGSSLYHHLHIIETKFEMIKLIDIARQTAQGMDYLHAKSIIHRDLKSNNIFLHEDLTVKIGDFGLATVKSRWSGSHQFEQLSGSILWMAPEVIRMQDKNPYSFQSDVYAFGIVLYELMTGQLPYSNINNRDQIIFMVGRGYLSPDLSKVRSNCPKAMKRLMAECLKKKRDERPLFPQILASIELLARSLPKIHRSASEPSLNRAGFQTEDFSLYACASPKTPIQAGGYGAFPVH
Chain of UniProt Q13164 (whole entry, looked up): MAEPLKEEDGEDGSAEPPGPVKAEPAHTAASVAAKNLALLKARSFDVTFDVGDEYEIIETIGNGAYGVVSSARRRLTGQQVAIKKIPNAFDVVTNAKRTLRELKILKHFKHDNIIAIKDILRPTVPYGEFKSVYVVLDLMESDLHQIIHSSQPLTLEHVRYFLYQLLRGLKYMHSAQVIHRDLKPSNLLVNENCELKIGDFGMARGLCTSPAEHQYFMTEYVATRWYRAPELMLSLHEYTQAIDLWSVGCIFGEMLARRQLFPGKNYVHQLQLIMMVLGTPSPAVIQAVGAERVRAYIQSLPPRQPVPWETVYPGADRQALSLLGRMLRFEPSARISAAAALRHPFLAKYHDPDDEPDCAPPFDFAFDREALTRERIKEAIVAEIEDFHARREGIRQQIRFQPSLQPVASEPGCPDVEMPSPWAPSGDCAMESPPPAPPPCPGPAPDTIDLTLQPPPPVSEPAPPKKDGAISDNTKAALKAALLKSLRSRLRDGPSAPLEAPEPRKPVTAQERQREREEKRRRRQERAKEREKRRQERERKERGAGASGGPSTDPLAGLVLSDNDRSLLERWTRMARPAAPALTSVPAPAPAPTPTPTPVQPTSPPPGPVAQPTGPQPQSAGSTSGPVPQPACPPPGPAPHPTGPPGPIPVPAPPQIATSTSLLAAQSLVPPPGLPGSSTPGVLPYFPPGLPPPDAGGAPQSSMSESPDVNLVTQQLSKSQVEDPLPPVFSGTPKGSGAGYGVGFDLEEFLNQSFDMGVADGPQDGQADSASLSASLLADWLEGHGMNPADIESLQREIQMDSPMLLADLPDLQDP
Chain of UniProt Q9P1W9 (whole entry, looked up): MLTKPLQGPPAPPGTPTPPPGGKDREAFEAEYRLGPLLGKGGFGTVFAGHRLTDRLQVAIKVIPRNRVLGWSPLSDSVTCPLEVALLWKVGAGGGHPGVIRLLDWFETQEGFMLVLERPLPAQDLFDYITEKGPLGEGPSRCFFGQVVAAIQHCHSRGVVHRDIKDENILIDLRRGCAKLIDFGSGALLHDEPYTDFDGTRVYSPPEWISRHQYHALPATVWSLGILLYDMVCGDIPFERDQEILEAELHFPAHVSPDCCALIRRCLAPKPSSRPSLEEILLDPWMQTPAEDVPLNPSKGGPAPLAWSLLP
Chain of UniProt Q04771 (whole entry, looked up): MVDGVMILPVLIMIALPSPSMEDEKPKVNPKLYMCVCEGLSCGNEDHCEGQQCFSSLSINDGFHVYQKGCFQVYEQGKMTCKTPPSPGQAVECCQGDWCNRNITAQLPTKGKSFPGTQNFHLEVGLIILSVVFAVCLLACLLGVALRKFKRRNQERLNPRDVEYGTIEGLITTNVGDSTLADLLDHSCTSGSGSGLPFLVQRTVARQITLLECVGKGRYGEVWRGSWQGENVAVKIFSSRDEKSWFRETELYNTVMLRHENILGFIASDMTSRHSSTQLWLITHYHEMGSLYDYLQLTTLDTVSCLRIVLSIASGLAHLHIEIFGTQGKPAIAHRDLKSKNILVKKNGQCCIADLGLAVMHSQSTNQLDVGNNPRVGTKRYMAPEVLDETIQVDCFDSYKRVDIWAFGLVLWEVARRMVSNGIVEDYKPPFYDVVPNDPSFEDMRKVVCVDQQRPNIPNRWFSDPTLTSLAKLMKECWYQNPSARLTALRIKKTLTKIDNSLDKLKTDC

Set 1
Target: Mitogen-activated protein kinase kinase kinase 11 (MAP3K11, Homo sapiens, UniProt Q16584)
Chain of UniProt Q16584 (whole entry, looked up): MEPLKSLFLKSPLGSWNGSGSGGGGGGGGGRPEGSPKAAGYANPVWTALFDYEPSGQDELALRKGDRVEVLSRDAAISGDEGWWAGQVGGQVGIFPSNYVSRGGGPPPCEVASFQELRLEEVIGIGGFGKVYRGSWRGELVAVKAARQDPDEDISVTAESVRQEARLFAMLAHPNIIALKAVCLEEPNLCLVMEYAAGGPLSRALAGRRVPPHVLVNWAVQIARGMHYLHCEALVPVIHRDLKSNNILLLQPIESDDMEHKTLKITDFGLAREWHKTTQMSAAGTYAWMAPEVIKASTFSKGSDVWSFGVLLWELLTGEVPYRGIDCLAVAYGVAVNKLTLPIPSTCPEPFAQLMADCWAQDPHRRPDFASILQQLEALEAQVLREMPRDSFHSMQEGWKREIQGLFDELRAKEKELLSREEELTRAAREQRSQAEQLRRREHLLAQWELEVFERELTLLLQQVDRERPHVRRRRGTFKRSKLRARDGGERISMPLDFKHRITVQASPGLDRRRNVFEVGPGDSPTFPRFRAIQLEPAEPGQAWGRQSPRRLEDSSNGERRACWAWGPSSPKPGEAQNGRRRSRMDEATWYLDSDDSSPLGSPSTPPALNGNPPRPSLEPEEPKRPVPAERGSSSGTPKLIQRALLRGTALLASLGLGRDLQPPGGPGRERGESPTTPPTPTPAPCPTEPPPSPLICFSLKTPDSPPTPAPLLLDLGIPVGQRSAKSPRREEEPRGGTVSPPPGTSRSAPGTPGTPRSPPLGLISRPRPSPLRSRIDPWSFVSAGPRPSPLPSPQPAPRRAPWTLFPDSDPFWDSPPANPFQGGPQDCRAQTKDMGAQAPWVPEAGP
Read-out: enzyme activity
Action: inhibitor
Tested at: 0.5 µM
Relative to: control
Endpoint: remaining activity
CCN(CC)CCNC(=O)c1c(C)[nH]c(/C=C2\C(=O)Nc3ccc(F)cc32)c1C: 68.4%
O=C1C(Cl)=C(N2C(=O)CCC2=O)C(=O)c2ccccc21: 102%
Cc1cc2ncc(-c3ccccc3)nc2cc1C: 97.3%
COc1cc2c(cc1OC)-c1[nH]nc(Nc3cccc(F)c3)c1C2: 93.9%
C[C@@H]1CCN(C(=O)CC#N)C[C@@H]1N(C)c1ncnc2[nH]ccc12: 104%
Cn1nc2c3c(cccc31)C(=O)c1ccccc1-2: 97.2%
N#C/C(=C\c1ccc(O)c(O)c1)C(=O)NCc1ccccc1: 97%
Nc1cccc(-c2cc3c(Oc4cccc(O)c4)ncnc3[nH]2)c1: 52.4%
N#Cc1c(NC(=O)c2cccc3ccccc23)sc2c1CCCC2: 103%
c1ccc(-c2[nH]ncc2-c2ccnc3ccccc23)nc1: 96.5%
COc1cc2ncnc(Nc3cccc(Cl)c3)c2cc1OC: 84.1%
COc1cc2ncnc(Nc3ccc(O)c(Br)c3)c2cc1OC: 83.7%
CN([C@@H](Cc1ccc(OS(=O)(=O)c2cccc3cnccc23)cc1)C(=O)N1CCN(c2ccccc2)CC1)S(=O)(=O)c1cccc2cnccc12: 105%
O=C(Nc1cccc(Nc2nccc(Nc3cccc(C(F)(F)F)c3)n2)c1)C1CC1: 89.5%
Ic1cccc(CSc2nnc(-c3ccncc3)o2)c1: 99.6%
O=C(NC(NC(=S)Nc1ccc(F)c([N+](=O)[O-])c1)C(Cl)(Cl)Cl)C(c1ccccc1)c1ccccc1 (centres unmarked): 102%
CCN(CC)C(=O)c1ccc(Nc2nc(OCC3CCCCC3)c3[nH]cnc3n2)cc1: 5.55%
CN(C)C[C@H]1CCn2c(c(C3=C(c4cn(C)c5ccccc45)C(=O)NC3=O)c3ccccc32)C1: 95.2%
O=C1c2ccccc2-c2n[nH]c3cccc1c23: 56.9%
O=c1cc(-c2cccc3c2Sc2ccccc2S3)oc(N2CCOCC2)c1: 98.6%
CCN(CC)CCNC(=O)c1c(C)[nH]c(/C=C2\C(=O)Nc3ccc(Cl)cc32)c1C: 21%
Cc1nc2cc3nc(-c4cccs4)cnc3cc2n1C: 91.1%
CCOc1nc(NC(=O)Cc2cc(OC)ccc2OC)cc(N)c1C#N: 98.8%
Cc1cn(-c2cc(NC(=O)c3ccc(C)c(Nc4nccc(-c5cccnc5)n4)c3)cc(C(F)(F)F)c2)cn1: 109%
c1ccc(-c2cnc(Nc3ccc(OCCN4CCCC4)cc3)s2)cc1: 84.4%

Set 2
SMILES: CC(=O)N[C@@H](Cc1c[nH]c2ccccc12)C(=O)N[C@@H](CCC(=O)C=[N+]=[N-])C(=O)OC(C)C
Medium: EL4 tumour
Dose: dose not given
Relative to: vehicle
Endpoint: log2 fold change
refers to: N-acetylaspartate; Mus musculus: 1.72
refers to: hypotaurine; mouse, EL4 tumour-bearing: -2.22
refers to: 4-hydroxyphenylpyruvate; mouse, EL4 tumour-bearing: 1.37
refers to: alpha-hydroxyisocaproate; mouse, EL4 tumour-bearing: -0.104
refers to: FGAR; mouse, EL4 tumour-bearing: 4.11
refers to: N1-Methyl-2-pyridone-5-carboxamide; mouse, EL4 tumour-bearing: -0.281
refers to: thioproline; mouse, EL4 tumour-bearing: -0.878
refers to: xanthosine; mouse, EL4 tumour-bearing: 0.445
refers to: 2'-O-methyluridine; mouse, EL4 tumour-bearing: -0.932
refers to: dihydroxyacetone phosphate; Mus musculus: 0.359

Set 3
Cell line: Huh-7
Tested at: 10 µM
Time: 24 h
Endpoint: viability
CC(C)(Oc1ccc(CCNC(=O)c2ccc(Cl)cc2)cc1)C(=O)O: 97.6%
Nc1ccc(C(=O)O)c(O)c1: 95.9%
COc1ccc(C(=O)CC(=O)c2ccc(C(C)(C)C)cc2)cc1: 91.4%
Cc1onc(-c2c(Cl)cccc2Cl)c1C(=O)N[C@@H]1C(=O)N2[C@@H]1SC(C)(C)[C@@H]2C(=O)O: 96.3%
CCn1cc(C(=O)O)c(=O)c2ccc(C)nc21: 97.9%
O=C1CCc2cc(OCCCCc3nnnn3C3CCCCC3)ccc2N1: 94.8%
COc1c2occc2cc2ccc(=O)oc12: 100%
CC(=O)O[C@]1(C(C)=O)CC[C@H]2[C@@H]3C=C(Cl)C4=CC(=O)[C@@H]5C[C@@H]5[C@]4(C)[C@H]3CC[C@@]21C: 97.5%
CCN(CC)CCNC(=O)c1cc(Cl)c(N)cc1OC: 97.2%
C[N+](C)(C)CCOP(=O)(O)OP(=O)([O-])OC[C@H]1O[C@@H](n2ccc(N)nc2=O)[C@H](O)[C@@H]1O: 55.6%
Nc1nc2c(c(=O)[nH]1)N(C=O)C(CNc1ccc(C(=O)N[C@@H](CCC(=O)O)C(=O)O)cc1)CN2 (some centres unmarked): 96.8%
CN(CCOc1ccc(CC2SC(=O)NC2=O)cc1)c1ccccn1 (centres unmarked): 94.6%
O=C(O)CN1C(=O)c2cccc3cccc(c23)C1=O: 98.9%
CCCC(=O)O[C@]1(C(=O)CO)CC[C@H]2[C@@H]3CCC4=CC(=O)CC[C@]4(C)[C@H]3[C@@H](O)C[C@@]21C: 99.6%

Set 4
Compound: C[C@H](c1ccnc(Nc2nc3ccc(-c4cc(N(C)C)ncn4)cc3[nH]2)c1)N1CCN(C(=O)CC(F)(F)F)CC1
Read-out: cell-free assay
Technique: competition with immobilised ligand
Tested at: 0.1 µM
Endpoint: remaining binding
NTRK2 (Homo sapiens, UniProt Q16620): 100%
ACVR1 (Homo sapiens, UniProt Q04771): 100%
PIM2 (Homo sapiens, UniProt Q9P1W9): 100%
DAPK3 (Homo sapiens, UniProt O43293): 90%
MAPK7 (Homo sapiens, UniProt Q13164): 100%
DYRK2 (Homo sapiens, UniProt Q92630): 87%
KIT (Homo sapiens, UniProt P10721): 88%
HIPK2 (Homo sapiens, UniProt Q9H2X6): 100%
EPHA5 (Homo sapiens, UniProt P54756): 81%
EPHA6 (Homo sapiens, UniProt Q9UF33): 93%
BRAF (Homo sapiens, UniProt P15056): 100%
NIM1K (Homo sapiens, UniProt Q8IY84): 100%
ZAP70 (Homo sapiens, UniProt P43403): 100%
FLT3 (Homo sapiens, UniProt P36888, ITD): 100%
SGK3 (Homo sapiens, UniProt Q96BR1): 100%
KIT (Homo sapiens, UniProt P10721, T670I/V559D): 99%
